Measured values of several laboratories.
Compare with care: the assays were run in different laboratories. “And” joins repeats or separate records; there may be more than shown. Numbers after ± are the reported error.
PCNA: PCNA (Homo sapiens, UniProt P12004)
UniProt P12004, sequence (whole entry, looked up): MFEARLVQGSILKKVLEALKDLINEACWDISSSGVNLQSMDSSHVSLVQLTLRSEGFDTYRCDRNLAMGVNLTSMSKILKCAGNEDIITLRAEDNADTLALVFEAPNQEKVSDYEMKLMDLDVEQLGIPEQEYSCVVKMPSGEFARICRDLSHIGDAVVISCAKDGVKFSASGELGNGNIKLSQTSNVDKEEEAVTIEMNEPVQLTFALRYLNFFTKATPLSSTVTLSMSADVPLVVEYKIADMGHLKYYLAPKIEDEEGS
IRF2BP2: IRF2BP2 fragment (Homo sapiens)
BCL2L1: BCL2L1 fragment (Homo sapiens)
Mcl1 152-308: Mcl1 152-308 (Mus musculus, UniProt P97287)
UniProt P97287, sequence (whole entry, looked up): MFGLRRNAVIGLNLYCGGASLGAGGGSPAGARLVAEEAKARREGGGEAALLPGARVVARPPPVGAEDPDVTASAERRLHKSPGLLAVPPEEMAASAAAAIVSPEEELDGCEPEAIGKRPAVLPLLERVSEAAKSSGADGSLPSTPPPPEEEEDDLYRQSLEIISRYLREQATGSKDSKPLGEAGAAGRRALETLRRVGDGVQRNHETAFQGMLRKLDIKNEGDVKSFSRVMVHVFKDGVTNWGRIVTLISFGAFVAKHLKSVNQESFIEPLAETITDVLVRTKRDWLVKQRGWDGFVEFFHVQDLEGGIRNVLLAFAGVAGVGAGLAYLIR
KEAP1: KEAP1 321-609 (Homo sapiens, UniProt Q14145)
UniProt Q14145, sequence (whole entry, looked up): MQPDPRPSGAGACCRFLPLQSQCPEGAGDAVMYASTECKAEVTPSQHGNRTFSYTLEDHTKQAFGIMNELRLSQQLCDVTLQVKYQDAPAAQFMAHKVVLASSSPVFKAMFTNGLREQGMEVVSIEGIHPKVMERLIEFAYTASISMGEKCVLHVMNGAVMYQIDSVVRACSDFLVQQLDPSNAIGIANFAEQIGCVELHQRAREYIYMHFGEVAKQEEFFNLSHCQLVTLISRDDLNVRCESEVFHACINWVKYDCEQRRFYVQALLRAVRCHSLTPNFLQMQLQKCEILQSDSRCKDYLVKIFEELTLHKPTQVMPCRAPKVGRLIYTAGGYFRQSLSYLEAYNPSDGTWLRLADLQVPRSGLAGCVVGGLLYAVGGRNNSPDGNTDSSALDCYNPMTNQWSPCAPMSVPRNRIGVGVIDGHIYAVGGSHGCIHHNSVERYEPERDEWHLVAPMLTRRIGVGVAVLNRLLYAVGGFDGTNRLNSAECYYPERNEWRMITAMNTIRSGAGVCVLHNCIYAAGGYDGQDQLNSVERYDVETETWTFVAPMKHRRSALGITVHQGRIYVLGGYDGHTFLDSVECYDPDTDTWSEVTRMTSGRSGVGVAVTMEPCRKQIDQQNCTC
PPARG: PPARG 202-477 (Homo sapiens, UniProt P37231-2)
Crebbp: Crebbp 340-439 (Mus musculus, UniProt P45481)
UniProt Q09822, sequence (whole entry, unmodified, looked up): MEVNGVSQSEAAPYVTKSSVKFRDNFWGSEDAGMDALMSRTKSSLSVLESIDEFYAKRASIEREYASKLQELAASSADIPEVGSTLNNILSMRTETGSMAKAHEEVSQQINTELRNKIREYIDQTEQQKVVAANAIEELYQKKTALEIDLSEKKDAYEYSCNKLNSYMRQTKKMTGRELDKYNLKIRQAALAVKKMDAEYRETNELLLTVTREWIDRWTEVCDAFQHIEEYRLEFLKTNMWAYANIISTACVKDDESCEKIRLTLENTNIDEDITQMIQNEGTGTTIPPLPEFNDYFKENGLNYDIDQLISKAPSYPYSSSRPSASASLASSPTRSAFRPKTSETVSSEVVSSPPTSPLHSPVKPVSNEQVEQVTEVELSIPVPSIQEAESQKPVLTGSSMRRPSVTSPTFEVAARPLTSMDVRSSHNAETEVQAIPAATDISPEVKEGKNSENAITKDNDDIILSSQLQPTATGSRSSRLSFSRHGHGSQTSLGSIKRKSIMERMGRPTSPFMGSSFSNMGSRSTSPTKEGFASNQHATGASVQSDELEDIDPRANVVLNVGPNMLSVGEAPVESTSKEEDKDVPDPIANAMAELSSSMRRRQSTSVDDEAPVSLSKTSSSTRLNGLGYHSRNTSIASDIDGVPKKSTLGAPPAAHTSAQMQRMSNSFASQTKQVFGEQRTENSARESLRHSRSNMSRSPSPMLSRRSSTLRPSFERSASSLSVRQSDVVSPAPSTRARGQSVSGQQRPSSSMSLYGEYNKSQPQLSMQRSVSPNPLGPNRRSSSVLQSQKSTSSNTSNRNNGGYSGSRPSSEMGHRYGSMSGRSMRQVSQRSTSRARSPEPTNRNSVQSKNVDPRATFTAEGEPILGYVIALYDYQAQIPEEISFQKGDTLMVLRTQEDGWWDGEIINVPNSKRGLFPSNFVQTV
UniProt P45481, sequence (whole entry, looked up): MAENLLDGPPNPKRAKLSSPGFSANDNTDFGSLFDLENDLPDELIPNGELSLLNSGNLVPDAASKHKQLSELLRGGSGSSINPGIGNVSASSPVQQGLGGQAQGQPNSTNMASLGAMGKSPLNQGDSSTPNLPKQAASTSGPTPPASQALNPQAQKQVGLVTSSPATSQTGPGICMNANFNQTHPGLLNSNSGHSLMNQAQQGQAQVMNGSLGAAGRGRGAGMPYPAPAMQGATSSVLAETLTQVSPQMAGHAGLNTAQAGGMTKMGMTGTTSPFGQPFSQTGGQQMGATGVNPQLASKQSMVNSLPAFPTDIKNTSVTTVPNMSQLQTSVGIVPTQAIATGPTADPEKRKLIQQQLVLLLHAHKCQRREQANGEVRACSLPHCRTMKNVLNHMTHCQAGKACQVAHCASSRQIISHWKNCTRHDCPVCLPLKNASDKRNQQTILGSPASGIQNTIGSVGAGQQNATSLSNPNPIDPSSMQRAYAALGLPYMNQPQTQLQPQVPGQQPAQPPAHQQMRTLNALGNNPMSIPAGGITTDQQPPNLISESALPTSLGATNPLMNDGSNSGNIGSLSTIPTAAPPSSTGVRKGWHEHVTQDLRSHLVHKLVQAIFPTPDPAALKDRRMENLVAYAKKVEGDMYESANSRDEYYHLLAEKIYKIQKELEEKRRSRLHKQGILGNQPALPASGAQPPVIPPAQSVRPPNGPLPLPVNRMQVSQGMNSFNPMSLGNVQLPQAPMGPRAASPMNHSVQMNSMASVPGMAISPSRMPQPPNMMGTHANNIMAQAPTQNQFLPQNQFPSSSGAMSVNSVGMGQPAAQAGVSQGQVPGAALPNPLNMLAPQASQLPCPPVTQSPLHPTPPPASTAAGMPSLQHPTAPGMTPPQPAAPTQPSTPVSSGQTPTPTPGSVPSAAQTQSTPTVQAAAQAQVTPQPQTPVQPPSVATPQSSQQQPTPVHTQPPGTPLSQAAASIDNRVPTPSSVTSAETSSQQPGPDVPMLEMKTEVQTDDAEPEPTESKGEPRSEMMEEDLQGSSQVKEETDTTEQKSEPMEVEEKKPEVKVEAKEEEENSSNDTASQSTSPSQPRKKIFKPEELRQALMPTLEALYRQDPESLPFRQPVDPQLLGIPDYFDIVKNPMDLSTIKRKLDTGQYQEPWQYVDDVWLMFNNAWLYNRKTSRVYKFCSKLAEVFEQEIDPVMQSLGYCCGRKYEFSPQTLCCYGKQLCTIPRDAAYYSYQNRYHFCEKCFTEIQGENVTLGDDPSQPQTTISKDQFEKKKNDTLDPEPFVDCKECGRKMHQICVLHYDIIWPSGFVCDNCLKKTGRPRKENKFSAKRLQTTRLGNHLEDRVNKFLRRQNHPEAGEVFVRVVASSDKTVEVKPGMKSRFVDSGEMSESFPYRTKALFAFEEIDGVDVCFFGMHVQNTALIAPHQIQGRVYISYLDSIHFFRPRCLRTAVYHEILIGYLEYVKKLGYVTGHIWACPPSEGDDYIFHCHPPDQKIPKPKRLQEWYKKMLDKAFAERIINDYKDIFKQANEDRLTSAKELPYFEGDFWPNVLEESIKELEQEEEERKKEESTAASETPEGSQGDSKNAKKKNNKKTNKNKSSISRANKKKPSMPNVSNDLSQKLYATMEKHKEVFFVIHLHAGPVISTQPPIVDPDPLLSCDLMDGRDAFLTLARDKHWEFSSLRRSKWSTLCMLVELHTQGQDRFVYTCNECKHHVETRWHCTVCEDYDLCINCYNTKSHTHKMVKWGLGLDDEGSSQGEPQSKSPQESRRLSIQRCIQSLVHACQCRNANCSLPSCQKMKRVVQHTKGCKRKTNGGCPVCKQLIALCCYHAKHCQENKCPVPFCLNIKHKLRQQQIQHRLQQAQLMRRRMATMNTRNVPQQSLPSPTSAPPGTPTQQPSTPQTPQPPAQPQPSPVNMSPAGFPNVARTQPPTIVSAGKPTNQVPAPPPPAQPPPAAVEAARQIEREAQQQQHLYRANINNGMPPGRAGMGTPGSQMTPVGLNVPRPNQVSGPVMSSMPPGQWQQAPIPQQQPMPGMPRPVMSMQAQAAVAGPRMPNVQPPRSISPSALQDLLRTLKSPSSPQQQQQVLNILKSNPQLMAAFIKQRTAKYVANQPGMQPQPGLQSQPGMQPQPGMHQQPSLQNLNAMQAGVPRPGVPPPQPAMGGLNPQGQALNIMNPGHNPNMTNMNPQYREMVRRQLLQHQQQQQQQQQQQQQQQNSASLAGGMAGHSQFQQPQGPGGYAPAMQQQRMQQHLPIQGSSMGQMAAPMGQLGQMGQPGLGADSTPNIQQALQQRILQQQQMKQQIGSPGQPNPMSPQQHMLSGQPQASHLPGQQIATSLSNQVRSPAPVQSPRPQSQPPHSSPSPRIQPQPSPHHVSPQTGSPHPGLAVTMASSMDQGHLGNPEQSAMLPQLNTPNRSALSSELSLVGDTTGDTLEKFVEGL
UniProt Q13283, sequence (whole entry, unmodified, looked up): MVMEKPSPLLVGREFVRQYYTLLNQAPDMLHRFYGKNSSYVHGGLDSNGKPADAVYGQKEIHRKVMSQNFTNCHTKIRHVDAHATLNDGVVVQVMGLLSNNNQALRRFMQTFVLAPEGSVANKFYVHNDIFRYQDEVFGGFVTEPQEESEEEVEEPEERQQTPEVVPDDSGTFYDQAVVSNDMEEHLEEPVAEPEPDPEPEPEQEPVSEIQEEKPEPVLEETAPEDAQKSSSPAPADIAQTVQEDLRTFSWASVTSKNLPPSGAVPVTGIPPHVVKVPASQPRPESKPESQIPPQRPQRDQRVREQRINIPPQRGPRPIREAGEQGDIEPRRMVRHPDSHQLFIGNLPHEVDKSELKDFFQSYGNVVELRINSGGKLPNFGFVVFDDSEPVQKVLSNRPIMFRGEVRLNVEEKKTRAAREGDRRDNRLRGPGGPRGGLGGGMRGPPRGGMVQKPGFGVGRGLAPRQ

Molecule	tested on	test	test system	conditions	scale	measurement	value
KRRQTKMTDFYHSKR (CDKN1A residues 141-155 S146K; C-terminal amide)	PCNA	SPR	peptide	–	–	Kd	13 nM
NPFPLLEDEDDLFTDQK (WASHC2A 1197-1213 (Homo sapiens))	SNX27 fragment (Homo sapiens)	ITC	peptide	–	–	Kd	31700 ± 570 nM
ERQQNRPSVITCASAG (VGLL4 residues 156-171 (Homo sapiens))	IRF2BP2	ITC	peptide	–	–	Kd	1400 nM and 1040 nM and 1630 nM and 1550 nM
VQDTRL (CFTR residues 1475-1480; N-terminal FITC label)	NHERF2 142-254 (Homo sapiens, UniProt Q15599-1)	fluorescence polarisation	peptide	–	–	Kd	46.3 ± 1.2 nM
QDASTKKLSECLKRIGDELDSNMEL (BAX BH3 peptide (Homo sapiens); N-acetyl, C-terminal amide)	BCL2L1	ITC	peptide	–	–	Kd	120 nM
TPTPSARRTIGPRAPKSKTTY (Cdc12 residues 20-40 (Schizosaccharomyces pombe))	cdc15 19-312 E30K/E152K (Schizosaccharomyces pombe, UniProt Q09822)	ITC	peptide	–	–	Kd	4700 nM and 6900 nM and 3500 nM
QHWSYKLRPG (GNRH1 mature G6K (Homo sapiens); pGlu1, D-Lys6, sulfo-Cy5, C-terminal amide)	GNRHR (Homo sapiens, UniProt P30968)	FRET or BRET	peptide	–	–	Kd	7.8 nM
EEEWAREIGAYLRRAADDLNAQYERRR (PUMA residues 130-156 M144A/Q140Y; N-acetyl, C-terminal amide)	Mcl1 152-308	SPR	peptide	–	–	Kd	0.31 ± 0.11 nM
SIFDDDMDDIFSSG (WASHC2A 1289-1302 (Homo sapiens))	SNX27 (Homo sapiens, UniProt Q96L92-3)	ITC	peptide	–	–	Kd	19000 ± 280 nM
Histone H3.1 fragment (Homo sapiens) (sequence not shown)	WDR5 fragment N130A (Homo sapiens)	ITC	–	–	–	Kd	11800 ± 1400 nM
FSIVGSLPRDF (GLRB peptide 398-408)	Gphn (Rattus norvegicus, UniProt Q03555)	competition titration, magnetic tweezers	peptide	–	–	Kd	2120 nM
ANGNAENEENGEQEADNEVD (PTMA 35-54, isoform 1; N-acetyl, C-terminal amide)	KEAP1	ITC	peptide	–	–	Kd	13400 nM
EEEWAREAGAQLRRAADDLNAQYERRR (PUMA residues 130-156 M144A/I137A; N-acetyl, C-terminal amide)	Mcl1 152-308	SPR	peptide	–	–	Kd	19 ± 4 nM
GKAPRKQLAT (histone H3 14-23 (UniProt P68431); acetylated K18; sequence looked up)	YEATS4 19-159 (Homo sapiens, UniProt O95619)	ITC	peptide	–	–	Kd	630000 nM
RPDRETRASVIKKTSDITQ (IRF2 residues 325-343 (Homo sapiens))	IRF2BP2	ITC	peptide	–	–	Kd	1590 nM and 1430 nM and 1670 nM and 2000 nM
YWISNSWTTYRYVSTC (engineered peptide)	Vps26b/VPS35 VPS35 (Mus musculus; Homo sapiens)	ITC	peptide	–	–	Kd	491 ± 27 nM
CVPMTYRAC (cyclic peptide; cyclic, NOTA-Bn conjugated)	Lag3 (Mus musculus, UniProt Q61790)	SPR	peptide	–	–	Kd	10400 nM
GRGRGRGRGRGRGRGRGRGRGRGRGRGRGRGRGRGRGRGRGRGRGRGRGRGRGRGRGRGR (poly-GR 30 repeats)	G3BP1 1-411 (Homo sapiens, UniProt Q13283)	BLI	peptide	–	–	Kd	0.76 nM
GLFSDEEDSEDLFSSQS (WASHC2A 536-552 (Homo sapiens))	SNX27 fragment (Homo sapiens)	ITC	peptide	–	–	Kd	29200 ± 280 nM
HIKTHLDEETGEKTSITLDV (PALB2 83-102; N-acetyl, C-terminal amide)	KEAP1	ITC	peptide	–	–	Kd	130 nM
YIKTPLGTFPNRHGC (engineered peptide)	VPS35/VPS26A/VPS29 retromer complex (Homo sapiens)	ITC	peptide	–	–	Kd	96 ± 1 nM

Molecule	tested on	test	test system	conditions	scale	measurement	value
DLDSDDEY (TELO2 488-494 (Homo sapiens); pS491)	PIH1D1 51-180 K166A (Homo sapiens, UniProt Q9NWS0)	ITC	peptide	–	–	Kd	58100 nM
PRPRPRPRPRPRPRPRPRPRPRPRPRPRPRPRPRPRPRPRPRPRPRPRPRPRPRPRPRPR (poly-PR 30 repeats)	NPM1 (Homo sapiens, UniProt P06748)	BLI	peptide	–	–	Kd	82.3 nM
CLIC4 NLS peptide (Homo sapiens) (sequence not shown)	KPNA2 fragment (Homo sapiens)	fluorescence titration	–	–	–	Kd	309000 ± 15100 nM
NLFDDNIDIFADLT (WASHC2A 1261-1274 (Homo sapiens))	SNX27 (Homo sapiens, UniProt Q96L92-3)	ITC	peptide	–	–	Kd	6960 ± 120 nM
YAGSDSDLDSDDEFVPY (TELO2 483-497 (Homo sapiens); pS487)	PIH1D1 1-180 (Homo sapiens, UniProt Q9NWS0)	ITC	peptide	–	–	Kd	30100 nM
LTARHKILHRLLQEGSPSD (NCOA1 peptide; N-terminal 5-FAM)	PPARG	FP	peptide	–	–	Kd	76900 nM and 51800 nM
KRRQRSIMSFFHSKR (CDKN1A/LIG1 chimeric PIP-box peptide; C-terminal amide)	PCNA	SPR	peptide	–	–	Kd	40.7 nM
SQSTLSPNASVFKPSRS (upa1 128-144 (Ustilago maydis, UniProt A0A0D1E015); sequence looked up)	pab1 567-636 (Ustilago maydis, UniProt Q4P8R9)	ITC	peptide	–	–	Kd	15000 nM
EEQWAREIGAQLRRMADDLNAQYER (BBC3 BH3 peptide 68-92 (Homo sapiens); N-acetyl, C-terminal amide)	BCL2L1 BCL-xL ΔC H to A (Homo sapiens)	ITC	peptide	–	–	Kd	33 ± 7 nM
SAKAADDPENGERESHTPVS (BPTF 584-603; N-acetyl, C-terminal amide)	KEAP1	ITC	peptide	–	–	Kd	980 nM
RNNIKQAANNSLLLHLLKSQTIP (NRIP1 peptide; N-terminal 5-FAM)	PPARG	FP	peptide	–	–	Kd	2140 nM
insulin human	–	refers to: GLUD1 mRNA	EcoHIV-infected mouse, brain	i.p., dose not given	relative to: PBS	fold change	1.2
SDLACRLLGQSMDESGLPQLTSYDCEVNAPIQGSGSGSRNLLQGEELLRALDQVN (HIF1A 776-826 807-811 replaced by (GS)2 (Homo sapiens, UniProt Q16665); sequence looked up)	Crebbp	fluorescence polarisation	–	–	–	Kd	120 nM
TSLFEEDEEDDLFAIAK (WASHC2A 662-678 (Homo sapiens))	SNX27 (Homo sapiens, UniProt Q96L92-3)	ITC	peptide	–	–	Kd	68800 ± 1270 nM
RVYPVSVPYSSAQSTSKTSVTLSLVMPSQ (Tab1 residues 384-412 (Mus musculus))	Mapk14 I275G (Mus musculus, UniProt P47811)	ITC	peptide	–	–	Kd	3400 nM
SSASSEDYIIILPECFDTSRPLGDS (NBR1 725-749 (UniProt Q14596); FITC label)	TAX1BP1 346-506 (Homo sapiens, UniProt Q86VP1)	FP	peptide	–	–	Kd	5820 ± 660 nM
NLWAAQRYGRELRRMSDEFVDSFKK (BAD BH3 peptide (Homo sapiens); N-acetyl, C-terminal amide)	BCL2L1	ITC	peptide	–	–	Kd	0.2 nM
SLEEPHSPETGEKVVAGEVN (AMER1 280-299; N-acetyl, C-terminal amide)	KEAP1	ITC	peptide	–	–	Kd	270 nM
KRRQRSMTDFYHSKR (CDKN1A residues 141-155 T145R; C-terminal amide)	PCNA	SPR	peptide	–	–	Kd	88.5 nM
SDLACRLLGQSMDESGLPQLTSYDCEVNAPIQGSGSRNLLQGEELLRALDQVN (HIF1A 776-826 807-811 replaced by GS linker (Homo sapiens, UniProt Q16665); sequence looked up)	Crebbp	fluorescence polarisation	–	–	–	Kd	70 nM

Excerpt of the above:
Molecule	tested on	test	test system	conditions	scale	measurement	value
RNNIKQAANNSLLLHLLKSQTIP (NRIP1 peptide; N-terminal 5-FAM)	PPARG	FP	peptide	–	–	Kd	2140 nM
insulin human	–	refers to: GLUD1 mRNA	EcoHIV-infected mouse, brain	i.p., dose not given	relative to: PBS	fold change	1.2
SDLACRLLGQSMDESGLPQLTSYDCEVNAPIQGSGSGSRNLLQGEELLRALDQVN (HIF1A 776-826 807-811 replaced by (GS)2 (Homo sapiens, UniProt Q16665); sequence looked up)	Crebbp	fluorescence polarisation	–	–	–	Kd	120 nM
TSLFEEDEEDDLFAIAK (WASHC2A 662-678 (Homo sapiens))	SNX27 (Homo sapiens, UniProt Q96L92-3)	ITC	peptide	–	–	Kd	68800 ± 1270 nM
RVYPVSVPYSSAQSTSKTSVTLSLVMPSQ (Tab1 residues 384-412 (Mus musculus))	Mapk14 I275G (Mus musculus, UniProt P47811)	ITC	peptide	–	–	Kd	3400 nM
SSASSEDYIIILPECFDTSRPLGDS (NBR1 725-749 (UniProt Q14596); FITC label)	TAX1BP1 346-506 (Homo sapiens, UniProt Q86VP1)	FP	peptide	–	–	Kd	5820 ± 660 nM
NLWAAQRYGRELRRMSDEFVDSFKK (BAD BH3 peptide (Homo sapiens); N-acetyl, C-terminal amide)	BCL2L1	ITC	peptide	–	–	Kd	0.2 nM
